Measurements of several laboratories.
A part holds a random share of what one study measured.

Block 1
Target: Sal-like protein 4, full length isoform B (SALL4, Homo sapiens, UniProt Q9UJQ4-2, residues 1-616)
Technique: universal PBM
Molecule type: double-stranded DNA, one strand shown
Sample: in vitro
Concentration: not given
Setting: 8-mer, flanks averaged, mean of replicates
Direction: higher = stronger binding
With `AGGTTCTA` the E-score was 0.014.
`CTTTCGCC` has an E-score of -0.0244.
The E-score of `GCTGTCCA` is reported as -0.214.
With `ACAAATAG` the E-score was 0.267.
With `GCGCTGAA` the E-score was -0.331.
With `AAACCACC` the E-score was -0.0567.
The E-score of `AAAGCAAA` is reported as 0.245.
For `AATGGCCA`, the E-score was -0.0931.

Block 2
Target: Histone acetyltransferase KAT6A, both winged helices, GST fusion (KAT6A, Homo sapiens, UniProt Q92794, residues 1-181)
Technique: protein binding microarray
Molecule type: double-stranded DNA, one strand shown
Sample: in vitro
Concentration: not given
Setting: 8-mer, flanks averaged, mean of 2 arrays, mostly near background
Reference: not given
Direction: higher = stronger binding
Residues (chain): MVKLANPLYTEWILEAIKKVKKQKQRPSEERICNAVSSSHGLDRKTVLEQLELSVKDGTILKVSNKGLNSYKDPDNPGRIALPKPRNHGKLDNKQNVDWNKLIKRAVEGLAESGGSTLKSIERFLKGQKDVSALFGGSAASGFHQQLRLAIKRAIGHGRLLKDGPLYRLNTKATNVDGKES
`AACTACCC` has an E-score of -0.0716.
`CACTCACC` has an E-score of -0.153.
For `TATCGCGA`, the E-score was 0.237.
`ATGGGGTG` has an E-score of -0.131.
`AAGATTAA` has an E-score of -0.134.
`AAGGGGCT` gave an E-score of -0.186.
The E-score of `GTAACGGA` is reported as 0.203.
`AAGTCGAC` has an E-score of -0.0188.
For `CTACTTAA`, the E-score was -0.0973.
For `AGCGGAGA`, the E-score was 0.00086.

Block 3
Target: RNA binding protein fox-1 homolog 2, RRM domain, GST-SBP tag (RBFOX2, Homo sapiens, UniProt O43251-10, residues 100-194)
Technique: RNA Bind-n-Seq
Molecule type: RNA
Sample: in vitro
Concentration: 365 nM
Setting: natural RNA segment, single round, ends assumed
Reference: no-protein control
Direction: higher = stronger binding
Constant ends, left off below: GGGAGUUCUACAGUCCGACGAUC … UGGAAUUCUCGGGUGCCAA
Target sequence (chain): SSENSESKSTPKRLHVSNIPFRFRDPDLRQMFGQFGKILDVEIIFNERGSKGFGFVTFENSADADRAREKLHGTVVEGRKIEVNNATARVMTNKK
`UCUGGAAUUGAUGUUUACAUGUCUGUUGUUGGUCAUCUCUCCUGUGUCUUAAAUACUUUAAUGUUGGAAGAGCAUAGUGUUUGGGCUAGUGGGUUUCUGACAGCCCAUGG`: “RBNS enrichment (R)” 0.49.
Under “RBNS enrichment (R)”, `UAAUGUAUUUUCUUUUUAUUUUGCACUCUGUAAUUGCACUUUUUAAGUUUGAAGAGCCAUUUUGGUAAACGGUUUUUAUUAAAGAUGCUAUGGAACAUAAAGUUGUAUUG` is recorded as 0.743.
Under “RBNS enrichment (R)”, `UUUGGCCAUUGUCUAUUUGACAGUAACAGUAUUCCCAAUUUUUGUAAAGUUGUAUGUGCUGUUGUGUAAGUGUAACACUGUUUUUCUCUUGCAUGAAAUAGAUUUACUCU` is recorded as 2.7.
For `UUUCCAUAUUUUAAUUAUCAAAAUGACCAUAUCAGACUUAUUCCUGGGUAAAUUGCAUUUCAAACUAACUCAAUAUUCAGUGUUUUUGUUAAAACCUUGAACACUCCAGU`, “RBNS enrichment (R)” read 0.896.
`CAAUGUGAAAAUCACGUUUGCUAUUUAUAAACUUGUCCUUAGAUUAAUGUGUCUGGACAGAUUGUGGGAGUAAGUGAUUCUUCUAAGAAUUAGAUACUUGUCACUGCCUA` — result for “RBNS enrichment (R)”: 0.284.
For `UGUGGGAGACAGCAGCCUGUAUGUGGUGUGGGGCGUGGAUCGAGUGUAGCUGUGAAAUCCAUAUAUAUGAAAUGUCCUGCGGGAUACAGUCUUAGCUGACUUUUUUUUAC`, “RBNS enrichment (R)” read 1.67.
`GUUGUAUUUUGUUGGUAAUUAUUUUGGUACUUCUAAGAUGUAUAUUUAUUAAACAGAUUUUUACAGAAGCAUUGUCCCGCUCGUUUGCUAUUCUGAGUGGCUUGUUCCUG` — result for “RBNS enrichment (R)”: 0.657.
`ACUGGAUGGUGGUACAUGGUGGCAGGGACAGGACCACACCCAGUUAAGGCCAGACCAGGCUGAGUGUGACCCCUGAGGUAAACACUCCACUAAGCUGUGUCUUGUUCAUG` — result for “RBNS enrichment (R)”: 0.402.

Mixed results
`PhoQ, residues 284 288 289 292 302 303 TLASMF` gave a fold induction of 5.19 (PhoP, residues 12 14 15 18 19 SMASL (Escherichia coli, UniProt P23836); Sort-seq, measured: YFP reporter; E. coli; PhoQ-PhoP variant library, with: 10 µM Mg2+; reference: high Mg2+ state, higher = stronger signaling).

Some of these lines once more (block 3):
`UCUGGAAUUGAUGUUUACAUGUCUGUUGUUGGUCAUCUCUCCUGUGUCUUAAAUACUUUAAUGUUGGAAGAGCAUAGUGUUUGGGCUAGUGGGUUUCUGACAGCCCAUGG`: “RBNS enrichment (R)” 0.49.
`CAAUGUGAAAAUCACGUUUGCUAUUUAUAAACUUGUCCUUAGAUUAAUGUGUCUGGACAGAUUGUGGGAGUAAGUGAUUCUUCUAAGAAUUAGAUACUUGUCACUGCCUA` — result for “RBNS enrichment (R)”: 0.284.
`GUUGUAUUUUGUUGGUAAUUAUUUUGGUACUUCUAAGAUGUAUAUUUAUUAAACAGAUUUUUACAGAAGCAUUGUCCCGCUCGUUUGCUAUUCUGAGUGGCUUGUUCCUG` — result for “RBNS enrichment (R)”: 0.657.
